Measurements of several laboratories.
Several values in a cell are separate wells, animals, samples, runs or records. Numbers after ± are the reported error.

SMILES	test	test system	conditions	scale	endpoint	value
COc1ccc2c(c1)CN(C(=O)CCN1CCC(Cc3ccccc3)CC1)CC[S@@+]2[O-]	–	rat plasma	1000 ng/mL	–	fu	0.336
Cn1ncnc1[C@H]1c2n[nH]c(=O)c3cc(F)cc(c23)N[C@@H]1c1ccc(F)cc1	–	human patients, plasma	oral, 400 µg/m2 twice daily day 1, day 5, dose level DL2, median, together with: temozolomide 20 mg/m2 daily days 2-6	–	CL/F at steady state	3.1 L/h/m2
CCCCCCCOc1ccc(CCC(N)(CO)CO)cc1C(F)(F)F.Cl	–	healthy men	oral, 0.125 mg, day 21	–	renal clearance	0.0727 mL/min
C=CC(=O)Nc1cc(Nc2nccc(-c3cn(C)c4ccccc34)n2)c(OC)cc1N(C)CCN(C)C	storage stability	human plasma	72 h, -80 °C, LLOQ level	–	recovery	95.7%
CCN1CCN(Cc2ccc(NC(=O)c3ccc(C)c(NC(=O)c4cncc(-c5cccs5)c4)c3)cc2C(F)(F)F)CC1	LC-MS/MS	C57BL/6 mouse, plasma	intraperitoneal, 20 mg/kg single dose, 24 h	–	plasma concentration	7 ng/mL and 5 ng/mL
Cc1nc(-c2cnc(NC(C)C)n(C)c2=O)ccc1Oc1ccnc(-c2cnn(C)c2)c1	–	DBA/1 mouse, female, plasma	oral, 7.5 mg/kg, single dose	–	apparent clearance	1.5 mL/min/kg
C=CC(=O)N(C)CCOc1c(N)ncnc1-c1cc(F)cc(NC(=O)c2ccc(C3CC3)cc2F)c1C	–	human, whole blood	oral, 400 mg single dose	–	AUC	1060 ng·h/mL
O=C(COc1ccc(Cl)cc1)NC12CC(c3nnc([C@H]4C[C@@H](OC(F)(F)F)C4)o3)(C1)C2	–	human both sexes	oral, 45 mg once daily, 14 days	–	participants with TEAE	100%
O=C(O)CCCOc1ccc([18F])cc1-c1cc(-c2ccccc2C(F)(F)F)n(-c2ccccc2)n1	–	healthy Lewis rat	dose not given	–	heart uptake	15.6 ± 2.7 SUV
CSc1ccccc1C(=O)NCCn1cc(C(=O)NCc2cccc(C)n2)c(=O)c2cc3c(cc21)OC(F)(F)O3	–	Sprague-Dawley rat, male, plasma	intravenous, 5 mg/kg of parent compound	–	AUC(0-t)	173 ± 20 ng·h/mL
Cc1c(C(=O)O)ccc2c3n(nc12)[C@@H]1[C@H](C3)N(CC2CC2)[C@@]2(C(=O)Nc3cc(Cl)ccc32)[C@H]1c1cccc(Cl)c1F	–	female BALB/c nude mice, plasma	oral, 1 mg/kg twice daily, 31 h, SJSA-1 tumour-bearing	–	plasma concentration	145 nM and 296 nM and 482 nM and 157 nM and 338 nM
CC[C@H](C)[C@H](NC(=O)[C@H](Cc1ccccc1)NC(=O)[C@H](CCC(=O)O)NC(=O)[C@H](CCCCNC(=O)COCCOCCNC(=O)COCCOCCNC(=O)CC[C@H](NC(=O)CCCCCCCCCCCCCCCCC(=O)O)C(=O)O)NC(=O)[C@H](C)NC(=O)[C@H](C)NC(=O)[C@H](CCC(N)=O)NC(=O)CNC(=O)[C@H](CCC(=O)O)NC(=O)[C@H](CC(C)C)NC(=O)[C@H](Cc1ccc(O)cc1)NC(=O)[C@H](CO)NC(=O)[C@H](CO)NC(=O)[C@@H](NC(=O)[C@H](CC(=O)O)NC(=O)[C@H](CO)NC(=O)[C@@H](NC(=O)[C@H](Cc1ccccc1)NC(=O)[C@@H](NC(=O)CNC(=O)[C@H](CCC(=O)O)NC(=O)C(C)(C)NC(=O)[C@@H](N)Cc1cnc[nH]1)[C@@H](C)O)[C@@H](C)O)C(C)C)C(=O)N[C@@H](C)C(=O)N[C@@H](Cc1c[nH]c2ccccc12)C(=O)N[C@@H](CC(C)C)C(=O)N[C@H](C(=O)N[C@@H](CCCNC(=N)N)C(=O)NCC(=O)N[C@@H](CCCNC(=N)N)C(=O)NCC(=O)O)C(C)C	12-lead Holter ECG	healthy humans	subcutaneous, 1.5 mg once weekly, 24 h, steady state	baseline: placebo	QTcB change from baseline	11 ms
CN1CCN(C(=O)[C@H](CCCN[C@@H]2C[C@H]2c2ccc(F)cc2)NC(=O)c2ccc(-n3ccnn3)cc2)CC1	–	NOD/SCID mouse MV4-11 xenograft, subcutaneous tumour	oral, 15 mg/kg/day, 24 h	–	tumour concentration	3.76 ± 0.43 µM
Cc1cc(Nc2ncc(Cl)c(Nc3ccccc3S(=O)(=O)C(C)C)n2)c(OC(C)C)cc1C1CCNCC1	–	human, plasma	oral, 450 to 600 mg, cycle 2 day 1	–	AUC(0-24h) increase	70%
C=CC[C@@H]1/C=C(\C)C[C@H](C)C[C@H](OC)[C@H]2O[C@@](O)(C(=O)C(=O)N3CCCC[C@H]3C(=O)O[C@H](/C(C)=C/[C@@H]3CC[C@@H](O)[C@H](OC)C3)[C@H](C)[C@@H](O)CC1=O)[C@H](C)C[C@@H]2OC	–	kidney transplant recipients, whole blood	oral, dose not given	–	patients with subtherapeutic C0	47%
CC(C)(C(=O)N1CCOc2c(C#N)cncc2C1)C(F)F	item: Presyncope	human	oral, 10 mg once daily, 14 days, multiple ascending dose	–	subjects with adverse event	0%
CNCc1ccc(-c2[nH]c3cc(F)cc4c3c2CCNC4=O)cc1	–	human patients	oral, 240 mg twice daily, all grades	–	headache incidence	0%
O=C(N[C@H](Cc1c[nH]c2ccccc12)C(=O)Nc1ccncc1)c1ccc(-c2ccc(F)c(Cl)c2)cc1F	–	Swiss Webster mouse, female, heart	oral, 50 mg/kg, 2 h, 20% Kolliphor vehicle	–	concentration	8500 nM

Excerpt of the above:
SMILES	test	test system	conditions	scale	endpoint	value
C=CC[C@@H]1/C=C(\C)C[C@H](C)C[C@H](OC)[C@H]2O[C@@](O)(C(=O)C(=O)N3CCCC[C@H]3C(=O)O[C@H](/C(C)=C/[C@@H]3CC[C@@H](O)[C@H](OC)C3)[C@H](C)[C@@H](O)CC1=O)[C@H](C)C[C@@H]2OC	–	kidney transplant recipients, whole blood	oral, dose not given	–	patients with subtherapeutic C0	47%
CC(C)(C(=O)N1CCOc2c(C#N)cncc2C1)C(F)F	item: Presyncope	human	oral, 10 mg once daily, 14 days, multiple ascending dose	–	subjects with adverse event	0%
CNCc1ccc(-c2[nH]c3cc(F)cc4c3c2CCNC4=O)cc1	–	human patients	oral, 240 mg twice daily, all grades	–	headache incidence	0%
